Experimental data gathered from unrelated publications.
Parts stem from different laboratories: compare values within a part only. Substitutions count along the parent as printed.

Sample 1 — method: RNA Bind-n-Seq; form: RNA; sample: in vitro; concentration: 365 nM; reference: no-protein control; reading: higher = stronger binding
Target: RNA binding protein fox-1 homolog 2, RRM domain, GST-SBP tag (RBFOX2, Homo sapiens, UniProt O43251-10, residues 100-194)
Setting: natural RNA segment, single round, ends assumed
Constant ends, left off below: GGGAGUUCUACAGUCCGACGAUC … UGGAAUUCUCGGGUGCCAA
Construct (chain): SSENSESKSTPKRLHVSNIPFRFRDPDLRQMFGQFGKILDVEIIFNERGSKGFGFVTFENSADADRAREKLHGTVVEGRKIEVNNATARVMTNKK
Strand	RBNS enrichment (R)
CUUCAUCAGAGCCAACCUUUGAUAUUCUUGGAGGGGACAGGAGGUGGGAACACAGAGGGAGUAGCCUGCGAAUGUGCCUCCAGUCAGUGGGAUACUUUCUGCACCACUCU	0.938
UCCUGGGCCAGCCCUUAUGUCUGAAACUGGUUGCCAACAGCCCCGAGCCAAGGCAAGGAUUUGUGUUUGCCAAAAAUGUUCUGGGGACCCAGCCAGUGUGGGUCUGAACA	0.671
AAUGCCAUUCCCACUUGCCCCAGAGAAGCUACUCGGCCAAACCUAGCCAGGGUCUGUUCUUGUGGACCAGAGCCAGCCUAGUCAUUAUUUGCUGUCGGGUUUCCAGUUUC	0.193
AGUUCAAACCUUCUGAGCCCUGCUGGGGACUUUUUUUUAGGCUGGGCCUUCUUCUCCAGAAGGCUGUUGCUGUCACUUGCUGCUAGGAGCCUCCAAGCUGAUCAAGCAAU	0.281
GUCCCCUUGGUCCUGCUUAUGGCUGGACCGGCCCUGCAGGAGGUGGUGGAGCCGUGAAGGAGGCCGAGCUGCAGCUCUGGCUGCUGCUUGGCCUCCUGCUCCAAGACCCU	0.242
GUGAUCAGGGAGUGUGUCCAACGUAGCCCCCUGGCCUGUGCAAGCCCUGACUCCCUCAUGGUGCCUCGGAGAGUGGGGAGCAUAUUGGGCUGGGGUAAGCACUAGACCCA	0.374
UCAUGGUACAUUGCUAAGUCCAUGCUUGUGUGUGUGACAGUAGGCUUGAUAAUUUAUCUUAAAACACAGCAGCAUUGAAAUUUAGGAAAAGAAUAUUAAAUGCCUUUGGA	1.11
UGUAACUGUUUCUUCAACUCUUGCAUCCCUGAAGGGAAGAUGCUCUUGGAUGCACCUGUAAUAUCUUAGUUACUGAAUGGGAAGCUGUAGGGGCCGAGGAGGGCAGAGGG	1.7

Sample 2 — method: protein-binding microarray; form: double-stranded DNA, one strand shown; sample: in vitro; concentration: 2540 nM top; setting: 60-bp whole probe; added: salmon DNA 0.4 mg/ml; reference: random background probes; reading: higher = stronger binding; constant ends, left off below: GCCTAGCAC … GTCTTGATTCGCTTGACGCTGCTG
Target: Interferon regulatory factor 3, full length, phosphomimetic (IRF3, Homo sapiens, UniProt Q14653, residues 1-427, S386D/S396D/S398D/S402D/T404D/S405D)
Construct (chain): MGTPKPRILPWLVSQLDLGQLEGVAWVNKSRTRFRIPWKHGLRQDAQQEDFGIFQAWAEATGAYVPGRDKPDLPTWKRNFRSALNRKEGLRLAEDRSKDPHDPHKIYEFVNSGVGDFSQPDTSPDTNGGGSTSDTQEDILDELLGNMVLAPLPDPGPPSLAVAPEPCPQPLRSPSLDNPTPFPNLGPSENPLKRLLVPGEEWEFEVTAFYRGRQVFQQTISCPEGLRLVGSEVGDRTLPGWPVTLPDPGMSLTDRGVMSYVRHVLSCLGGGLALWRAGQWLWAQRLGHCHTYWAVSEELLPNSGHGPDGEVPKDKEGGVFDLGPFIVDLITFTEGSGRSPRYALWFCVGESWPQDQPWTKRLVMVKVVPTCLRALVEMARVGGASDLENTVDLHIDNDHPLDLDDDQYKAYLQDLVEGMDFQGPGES
Strand	fitted relative affinity [z-score]
TCCCATTAAATTTTAATAACGTGCTAG	0.954
TCATTTTTTTTTTGGAAACTGTGCTAG	1.22
TTAGAGTTCGGGACTGGATTAGTGCTA	-0.554
TATGTTGTCCAGGCTGGTCTCGTGCTA	-0.415
TTAGGTTTCGGGTTTCGGATAGTGCTA	6.26
TTAGGTCTCGGTCACGGTTAGTGCTAG	-0.388
AACCGCACAGAACTAAAACAGTGCTAG	0.563
GACGGACTGTGTTTCGGGACGTGCTAG	1.04

Sample 3 — method: RNA Bind-n-Seq; form: RNA; sample: in vitro; concentration: 1 µM; setting: whole 134-nt RNA, ends assumed; added: 150 mM KCl; reference: input library; reading: higher = stronger binding
Target: Ras GTPase-activating protein-binding protein 1, C-terminal RGG region (G3BP1, Homo sapiens, UniProt Q13283)
UniProt Q13283, sequence (whole entry, looked up): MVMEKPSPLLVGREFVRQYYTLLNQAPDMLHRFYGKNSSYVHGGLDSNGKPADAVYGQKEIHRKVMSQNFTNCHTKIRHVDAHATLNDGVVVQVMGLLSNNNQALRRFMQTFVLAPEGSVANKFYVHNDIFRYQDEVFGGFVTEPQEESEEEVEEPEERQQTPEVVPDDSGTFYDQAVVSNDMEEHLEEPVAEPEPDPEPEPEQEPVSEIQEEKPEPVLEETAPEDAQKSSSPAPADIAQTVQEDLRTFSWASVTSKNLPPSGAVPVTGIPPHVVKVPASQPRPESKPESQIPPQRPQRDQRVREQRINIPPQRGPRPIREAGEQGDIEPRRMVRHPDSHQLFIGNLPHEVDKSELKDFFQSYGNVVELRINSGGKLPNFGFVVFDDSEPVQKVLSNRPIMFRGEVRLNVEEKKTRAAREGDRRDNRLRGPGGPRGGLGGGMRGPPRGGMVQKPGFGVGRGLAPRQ
Constant ends, left off below: GGGAGUUCUACAGUCCGACGAUC … UGGAAUUCUCGGGUGUCAAGG
Strand	log2 enrichment
UGGCCCUGGUGGCAUGCGGGGCGGAAGAGGUGGCCUCAUGGAUCGUGGUGGUCCCGGUGGAAUGUUCAGAGGUGGCCGUGGUGGAGACAG	2.5
ACCAUGCAGGUGGGCAUCUUUGGGAAGAAAGGCAAGGGGGGGAUAGGGAGGGGGGUAACACUUUGGGAACAGGUGGUCCCAGGUCGUUUC	-1.06
AAGUCCUGUGCUACACAUCGUAUGUACCGAAUCGGGGAGGGGAGGGGUUUUUGGGGAAAGUAUUAUGUUACGCCGUUCGGAUCUGCACUU	2.3
GCAGGAAGUAAAAACAAAUGGAAAUGCUUCGGAUAGUGGCAGGGGUGGGGGUUGCUAAGAAAAGGGUGGGAUGGGAGUGGGUAAAGAGUU	1.53
UUGAGAAGAAGCAAAAAGAGAUGGAUGAAGCUGCUACGGUGAGAGAAAACCCACUAUCGAUUCCACUCACCACUUACCUCCUUCCCUUAC	-0.72
AAGUCCUGUGCUACACAUCGUAUGUACCGAAUCAAAUUUAAAUUUUUAAACCCAAAAAAGUAUUAUGUUACGCCGUUCGGAUCUGCACUU	-1.01
UCCUGUGCUACACAUCGUAUGUACCGAAUCGGGUUUUUGGGGUUUUUGGGGUUUUUGGGAAAGUAUUAUGUUACGCCGUUCGGAUCUGCA	0.566
GCAGGAAGUAAAAACAAAUGGAAAUGCUUCGGAUAGUGGCAGGGGUGGGGGUUGCUAAGGAAAGGGUGGGAUGGGAGUGGGCAAAGAGUU	0.859

Further values, each from its own experiment
Starting sequence: PafA, mature enzyme, eGFP fusion (Elizabethkingia meningoseptica, UniProt Q9KJX5); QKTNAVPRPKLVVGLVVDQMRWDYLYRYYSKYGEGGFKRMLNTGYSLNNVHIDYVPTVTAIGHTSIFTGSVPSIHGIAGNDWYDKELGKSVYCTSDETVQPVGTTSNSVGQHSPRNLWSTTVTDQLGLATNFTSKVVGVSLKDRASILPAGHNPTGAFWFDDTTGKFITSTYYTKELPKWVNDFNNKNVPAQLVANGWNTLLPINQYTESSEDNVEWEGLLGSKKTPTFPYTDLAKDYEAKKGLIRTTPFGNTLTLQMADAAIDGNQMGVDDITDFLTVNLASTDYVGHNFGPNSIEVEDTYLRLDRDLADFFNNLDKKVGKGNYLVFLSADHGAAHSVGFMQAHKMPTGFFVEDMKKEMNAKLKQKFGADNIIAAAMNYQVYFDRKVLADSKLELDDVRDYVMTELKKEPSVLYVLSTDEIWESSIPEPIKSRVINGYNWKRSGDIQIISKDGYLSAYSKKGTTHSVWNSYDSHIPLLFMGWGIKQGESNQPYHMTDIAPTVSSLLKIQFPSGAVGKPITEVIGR
Substitution	target	test	system	setting	how to read	endpoint	value
T3V	vanadate, free oxyanion	microfluidic competitive inhibition	in vitro, cell-free expressed	not given, derived from inhibition constants, unchanged parent 676 nM	lower = stronger binding	oxyanion analog dissociation constant	0.547 µM

Repeated from above (sample 2):
Strand	fitted relative affinity [z-score]
TCCCATTAAATTTTAATAACGTGCTAG	0.954
TCATTTTTTTTTTGGAAACTGTGCTAG	1.22
TTAGAGTTCGGGACTGGATTAGTGCTA	-0.554
TATGTTGTCCAGGCTGGTCTCGTGCTA	-0.415
